Measured values pooled from the literature.
Each numbered part is a random draw from the data of one study; scales do not carry over between parts. Substitutions count along the parent as printed.

Sample 1
Target: tungstate, free oxyanion
Method: microfluidic competitive inhibition
Matrix: in vitro, cell-free expressed
Concentration: not given
Setting: derived from inhibition constants, unchanged parent 2230 nM
Reading: lower = stronger binding
Quantity: oxyanion analog dissociation constant
Parent: PafA, mature enzyme, eGFP fusion (Elizabethkingia meningoseptica, UniProt Q9KJX5); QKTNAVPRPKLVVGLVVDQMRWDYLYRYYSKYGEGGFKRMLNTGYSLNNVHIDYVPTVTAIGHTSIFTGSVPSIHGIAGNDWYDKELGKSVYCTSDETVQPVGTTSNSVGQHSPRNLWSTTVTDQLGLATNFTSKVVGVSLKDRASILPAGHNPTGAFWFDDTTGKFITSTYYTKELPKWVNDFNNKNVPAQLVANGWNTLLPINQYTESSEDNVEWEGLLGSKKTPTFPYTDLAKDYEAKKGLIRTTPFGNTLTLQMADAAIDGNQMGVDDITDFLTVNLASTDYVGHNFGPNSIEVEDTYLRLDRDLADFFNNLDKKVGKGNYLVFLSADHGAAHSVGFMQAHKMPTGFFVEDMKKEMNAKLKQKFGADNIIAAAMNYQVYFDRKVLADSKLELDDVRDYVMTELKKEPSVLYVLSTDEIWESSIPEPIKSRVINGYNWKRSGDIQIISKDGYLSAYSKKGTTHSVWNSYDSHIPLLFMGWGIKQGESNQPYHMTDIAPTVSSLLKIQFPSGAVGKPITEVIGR
K358G: 1.88 µM
A376G: 2.09 µM
Q448V: 2.81 µM
L326V: 2.31 µM

Sample 2
Target: Ras GTPase-activating protein-binding protein 1, full length (G3BP1, Homo sapiens, UniProt Q13283)
UniProt Q13283, sequence (whole entry, looked up): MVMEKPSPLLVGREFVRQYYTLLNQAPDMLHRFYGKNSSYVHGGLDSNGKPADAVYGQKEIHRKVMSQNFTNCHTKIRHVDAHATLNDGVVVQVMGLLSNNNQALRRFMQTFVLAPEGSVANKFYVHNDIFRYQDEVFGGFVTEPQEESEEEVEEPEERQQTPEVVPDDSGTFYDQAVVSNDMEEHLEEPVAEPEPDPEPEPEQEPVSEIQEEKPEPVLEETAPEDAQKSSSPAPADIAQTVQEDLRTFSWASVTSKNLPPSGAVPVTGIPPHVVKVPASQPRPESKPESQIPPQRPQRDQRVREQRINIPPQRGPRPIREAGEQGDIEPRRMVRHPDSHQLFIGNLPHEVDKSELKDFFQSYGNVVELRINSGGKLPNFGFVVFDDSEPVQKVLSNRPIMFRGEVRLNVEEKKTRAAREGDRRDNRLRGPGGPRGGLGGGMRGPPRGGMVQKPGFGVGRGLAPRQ
Method: RNA Bind-n-Seq
Molecule type: RNA
Matrix: in vitro
Concentration: 200 nM
Setting: whole 134-nt RNA, ends assumed
With: 150 mM KCl
Baseline: input library
Reading: higher = stronger binding
Quantity: log2 enrichment
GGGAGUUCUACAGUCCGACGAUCGCAGGAAGUAAAAACAAAUGGAAAUGCUUCGGAAAGUGGCAGGGGUGGGGGUUGCUAAGGAAAGGGUGGGAUGGGAGUGGGUAAAGAGUUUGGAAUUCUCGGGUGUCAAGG: 0.892
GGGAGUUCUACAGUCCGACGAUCCCUGUGCUACACAUCGUAUGUACCGAAUCGGGGUUUUUGGGGUUUUUUUGGGGUUUGGGGAAAGUAUUAUGUUACGCCGUUCGGAUCUGCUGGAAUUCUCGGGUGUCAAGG: 0.168
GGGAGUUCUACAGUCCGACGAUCCUGUGCUACACAUCGUAUGUACCGAAUCGGGGUUUUUUGGGGUUUUUUGGGUUUUUUGGGGAAAGUAUUAUGUUACGCCGUUCGGAUCUGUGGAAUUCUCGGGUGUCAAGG: -0.489
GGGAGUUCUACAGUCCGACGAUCAGUCCUGUGCUACACAUCGUAUGUACCGAAUCGGGAAAGGGAAAGGGUUUUUUUGGGAAAGUAUUAUGUUACGCCGUUCGGAUCUGCACUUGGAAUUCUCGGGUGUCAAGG: -0.29
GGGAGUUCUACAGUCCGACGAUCAAGUCCUGUGCUACACAUCGUAUGUACCGAAUCGGGAGGGAAAGGGAAAAAAAGGGAAAGUAUUAUGUUACGCCGUUCGGAUCUGCACUUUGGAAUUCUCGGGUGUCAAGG: -0.0639
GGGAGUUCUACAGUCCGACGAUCCCUGUGCUACACAUCGUAUGUACCGAAUCGGGGUUUUUUGGGGUUUUUUGGUUUUUUGGGAAAGUAUUAUGUUACGCCGUUCGGAUCUGCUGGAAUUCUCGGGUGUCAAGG: -0.669
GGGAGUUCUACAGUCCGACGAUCACCAUGCAGGUGGGCAUCUUUGGGAAGUGGGGCAAGGGGGGGAUAGGGAGGGGGGUAACACUUUGGGAACAAAAGGUCCCAGGUCGUUUCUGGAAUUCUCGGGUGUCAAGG: 1.17
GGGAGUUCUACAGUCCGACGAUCGAGGAGACUCUGCGCAGAGCACUUUGGGUCCGGAGGGCGAGACUCCGGCGGAAGCAUUCCCGGGCGGGUGACCCAGCACGGUCCCUCUUGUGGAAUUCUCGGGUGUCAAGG: -1.34

Sample 3
Molecule: AAAVRKPIVLKR
Molecule type: peptide
Reading: direction not given
Quantity: enrichment score
human cyclin A2; competitive growth deep sequencing; Saccharomyces cerevisiae, cyclin A2-Cln2 fusion strain; peptide tiling library: -0.0636
peptide binding; yeast competitive growth; with: B1-Cln2 chimera: 0.0211
Cln2 (Saccharomyces cerevisiae); peptide binding, competitive growth sequencing; Saccharomyces cerevisiae, unfused Cln2 strain; peptide tiling library: 0.171
Saccharomyces cerevisiae; cell growth, competitive growth deep sequencing; peptide tiling library, with: cyclin F-Cln2 fusion: -0.355
Saccharomyces cerevisiae; binding, competitive growth deep sequencing; cyclin E1-Cln2 fusion strain; peptide tiling library: -0.27
Saccharomyces cerevisiae; cell growth, competitive growth deep sequencing; peptide tiling library, with: cyclin E2-Cln2 fusion: -0.288
Saccharomyces cerevisiae; binding, yeast competitive growth sequencing; cyclin B3-Cln2 fusion strain; peptide tiling library: -0.0747
Saccharomyces cerevisiae; mating pheromone growth arrest, pooled competitive growth deep sequencing; no Cln2 overexpression; peptide tiling library: -0.176

Mixed results
Method: cross-linking MS
Matrix: cell fractions
GYS1 (Homo sapiens, UniProt P13807)
cross-linked residues (DDX5 (Homo sapiens, UniProt P17844); with: DSSO): T395 to K470

NDUFA8 (Homo sapiens, UniProt P51970)
cross-linked residues (NDUFA13 (Homo sapiens, UniProt Q9P0J0); with: DSSO): T9 to K105

SF3B1 (Homo sapiens, UniProt O75533)
cross-linked residues (SPRTN (Homo sapiens, UniProt Q9H040); with: DSSO): K175 to T263

LCP1 (Homo sapiens, UniProt P13796)
cross-linked residues (ABCF3 (Homo sapiens, UniProt Q9NUQ8); with: DMTMM): K294 to D57

Repeated from above (sample 3):
Saccharomyces cerevisiae; binding, yeast competitive growth sequencing; cyclin B3-Cln2 fusion strain; peptide tiling library: -0.0747
human cyclin A2; competitive growth deep sequencing; Saccharomyces cerevisiae, cyclin A2-Cln2 fusion strain; peptide tiling library: -0.0636
Saccharomyces cerevisiae; cell growth, competitive growth deep sequencing; peptide tiling library, with: cyclin F-Cln2 fusion: -0.355
Saccharomyces cerevisiae; mating pheromone growth arrest, pooled competitive growth deep sequencing; no Cln2 overexpression; peptide tiling library: -0.176
